# Assay results gathered from unrelated publications.
# Every numbered part comes from another study and shows a few of its results, in no order.
# Sequence of UniProt P37173 (whole entry, looked up): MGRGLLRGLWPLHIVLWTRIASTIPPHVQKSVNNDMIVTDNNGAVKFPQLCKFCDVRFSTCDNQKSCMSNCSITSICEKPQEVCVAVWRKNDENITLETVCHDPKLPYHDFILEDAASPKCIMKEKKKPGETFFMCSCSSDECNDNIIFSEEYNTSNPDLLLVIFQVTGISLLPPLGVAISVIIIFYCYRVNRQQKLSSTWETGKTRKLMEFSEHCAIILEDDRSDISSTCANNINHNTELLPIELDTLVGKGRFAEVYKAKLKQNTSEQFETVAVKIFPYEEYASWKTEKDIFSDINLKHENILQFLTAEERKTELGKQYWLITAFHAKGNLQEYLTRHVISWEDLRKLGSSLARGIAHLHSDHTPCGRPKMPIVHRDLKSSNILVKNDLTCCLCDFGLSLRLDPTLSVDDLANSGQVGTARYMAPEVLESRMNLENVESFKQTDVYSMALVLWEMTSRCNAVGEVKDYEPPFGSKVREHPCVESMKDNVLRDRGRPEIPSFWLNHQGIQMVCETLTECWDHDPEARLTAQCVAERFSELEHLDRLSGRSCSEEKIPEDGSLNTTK
# Sequence of UniProt O15075 (whole entry, looked up): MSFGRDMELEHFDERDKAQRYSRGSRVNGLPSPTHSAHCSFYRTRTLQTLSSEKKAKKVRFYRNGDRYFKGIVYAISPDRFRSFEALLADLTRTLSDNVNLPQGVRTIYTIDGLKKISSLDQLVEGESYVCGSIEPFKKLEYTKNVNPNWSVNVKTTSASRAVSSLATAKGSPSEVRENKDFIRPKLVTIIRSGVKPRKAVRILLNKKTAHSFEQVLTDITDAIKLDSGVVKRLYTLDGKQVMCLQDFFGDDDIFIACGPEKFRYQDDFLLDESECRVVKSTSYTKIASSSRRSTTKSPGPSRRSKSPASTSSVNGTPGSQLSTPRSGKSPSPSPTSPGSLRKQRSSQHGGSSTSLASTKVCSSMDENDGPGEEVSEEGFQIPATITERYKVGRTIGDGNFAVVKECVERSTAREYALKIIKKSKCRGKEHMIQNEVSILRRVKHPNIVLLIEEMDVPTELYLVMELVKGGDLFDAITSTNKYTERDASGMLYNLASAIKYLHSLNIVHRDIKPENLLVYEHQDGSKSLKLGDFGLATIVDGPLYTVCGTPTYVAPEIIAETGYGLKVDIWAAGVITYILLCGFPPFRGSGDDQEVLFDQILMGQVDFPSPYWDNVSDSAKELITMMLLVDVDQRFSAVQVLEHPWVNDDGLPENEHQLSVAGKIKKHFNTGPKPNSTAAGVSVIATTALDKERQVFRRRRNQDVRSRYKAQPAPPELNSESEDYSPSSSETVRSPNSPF
# Sequence of UniProt Q9UIK4 (whole entry, looked up): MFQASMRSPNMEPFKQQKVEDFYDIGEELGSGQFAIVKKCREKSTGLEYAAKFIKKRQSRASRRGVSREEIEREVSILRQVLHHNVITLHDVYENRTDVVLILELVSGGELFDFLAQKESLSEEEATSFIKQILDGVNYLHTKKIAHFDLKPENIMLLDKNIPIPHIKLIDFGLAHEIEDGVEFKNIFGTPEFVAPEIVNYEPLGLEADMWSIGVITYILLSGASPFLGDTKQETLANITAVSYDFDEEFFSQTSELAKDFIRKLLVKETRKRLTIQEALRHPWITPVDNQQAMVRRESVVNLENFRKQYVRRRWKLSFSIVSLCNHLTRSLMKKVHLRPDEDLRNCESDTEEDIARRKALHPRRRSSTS
# Sequence of UniProt P11802 (whole entry, looked up): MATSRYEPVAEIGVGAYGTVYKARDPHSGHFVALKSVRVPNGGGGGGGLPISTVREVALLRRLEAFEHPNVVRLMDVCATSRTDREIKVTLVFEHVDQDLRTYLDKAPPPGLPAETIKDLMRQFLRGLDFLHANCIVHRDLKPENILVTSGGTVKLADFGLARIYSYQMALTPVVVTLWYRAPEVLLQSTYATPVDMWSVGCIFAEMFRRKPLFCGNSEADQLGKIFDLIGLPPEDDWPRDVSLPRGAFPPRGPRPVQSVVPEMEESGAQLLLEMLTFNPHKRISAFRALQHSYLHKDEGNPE
# Sequence of UniProt Q13557 (whole entry, looked up): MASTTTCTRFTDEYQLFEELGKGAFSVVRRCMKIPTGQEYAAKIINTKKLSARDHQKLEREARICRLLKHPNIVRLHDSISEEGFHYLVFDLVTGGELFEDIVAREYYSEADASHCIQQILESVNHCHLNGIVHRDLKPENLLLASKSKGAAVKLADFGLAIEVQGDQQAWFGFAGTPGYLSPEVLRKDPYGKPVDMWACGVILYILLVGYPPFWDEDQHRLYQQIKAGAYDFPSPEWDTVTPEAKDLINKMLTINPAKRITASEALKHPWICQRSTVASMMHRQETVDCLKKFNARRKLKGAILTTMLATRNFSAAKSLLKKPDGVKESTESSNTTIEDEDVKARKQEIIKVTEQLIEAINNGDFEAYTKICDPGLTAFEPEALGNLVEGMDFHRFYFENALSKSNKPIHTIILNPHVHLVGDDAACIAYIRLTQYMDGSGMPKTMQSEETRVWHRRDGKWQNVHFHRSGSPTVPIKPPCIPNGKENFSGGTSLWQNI
# Sequence of UniProt Q08345 (whole entry, looked up): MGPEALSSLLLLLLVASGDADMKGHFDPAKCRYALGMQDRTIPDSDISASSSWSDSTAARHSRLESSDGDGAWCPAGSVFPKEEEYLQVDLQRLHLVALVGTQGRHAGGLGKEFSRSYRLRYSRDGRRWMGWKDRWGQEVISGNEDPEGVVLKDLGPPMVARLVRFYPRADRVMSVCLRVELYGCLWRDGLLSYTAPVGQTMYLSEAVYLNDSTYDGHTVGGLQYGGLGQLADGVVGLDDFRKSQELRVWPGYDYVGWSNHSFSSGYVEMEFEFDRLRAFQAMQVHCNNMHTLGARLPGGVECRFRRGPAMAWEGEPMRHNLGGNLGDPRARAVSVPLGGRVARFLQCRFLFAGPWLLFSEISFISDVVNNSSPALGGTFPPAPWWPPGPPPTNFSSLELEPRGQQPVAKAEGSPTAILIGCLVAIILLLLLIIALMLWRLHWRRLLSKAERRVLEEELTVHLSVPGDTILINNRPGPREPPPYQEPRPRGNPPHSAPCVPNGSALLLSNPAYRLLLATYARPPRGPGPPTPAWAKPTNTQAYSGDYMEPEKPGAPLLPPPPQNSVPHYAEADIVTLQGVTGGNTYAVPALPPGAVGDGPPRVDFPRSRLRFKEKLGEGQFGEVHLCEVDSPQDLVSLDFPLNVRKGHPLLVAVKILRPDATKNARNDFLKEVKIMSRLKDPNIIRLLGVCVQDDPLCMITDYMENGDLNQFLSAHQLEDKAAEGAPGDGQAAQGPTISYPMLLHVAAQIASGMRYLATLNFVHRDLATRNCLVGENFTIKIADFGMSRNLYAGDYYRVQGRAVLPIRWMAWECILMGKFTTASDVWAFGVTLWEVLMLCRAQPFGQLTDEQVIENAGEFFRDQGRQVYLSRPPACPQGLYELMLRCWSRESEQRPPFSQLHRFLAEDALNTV
# Sequence of UniProt O96017 (whole entry, looked up): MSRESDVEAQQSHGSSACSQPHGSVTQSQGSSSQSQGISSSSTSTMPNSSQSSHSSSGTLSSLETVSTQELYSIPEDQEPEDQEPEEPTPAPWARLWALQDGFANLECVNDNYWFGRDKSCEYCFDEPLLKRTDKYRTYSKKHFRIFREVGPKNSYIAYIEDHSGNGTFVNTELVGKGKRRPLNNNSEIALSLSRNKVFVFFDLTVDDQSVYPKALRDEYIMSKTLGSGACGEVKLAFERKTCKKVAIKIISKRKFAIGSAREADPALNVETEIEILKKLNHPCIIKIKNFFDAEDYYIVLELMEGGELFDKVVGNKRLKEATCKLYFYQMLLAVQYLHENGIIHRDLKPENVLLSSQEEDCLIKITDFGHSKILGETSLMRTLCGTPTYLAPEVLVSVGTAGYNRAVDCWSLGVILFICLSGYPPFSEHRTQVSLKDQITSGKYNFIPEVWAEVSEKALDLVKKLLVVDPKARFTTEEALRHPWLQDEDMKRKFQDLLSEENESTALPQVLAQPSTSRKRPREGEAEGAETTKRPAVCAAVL
# Sequence of UniProt Q6P2M8 (whole entry, looked up): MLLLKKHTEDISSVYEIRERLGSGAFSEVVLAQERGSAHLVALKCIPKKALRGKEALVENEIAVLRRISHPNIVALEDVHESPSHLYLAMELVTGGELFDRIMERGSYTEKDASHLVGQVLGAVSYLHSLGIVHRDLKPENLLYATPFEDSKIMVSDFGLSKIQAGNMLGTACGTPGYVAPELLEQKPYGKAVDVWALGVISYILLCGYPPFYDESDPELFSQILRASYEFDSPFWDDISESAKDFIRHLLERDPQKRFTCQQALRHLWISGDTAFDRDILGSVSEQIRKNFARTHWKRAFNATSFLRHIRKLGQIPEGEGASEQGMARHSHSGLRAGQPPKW

# Set 1 — technique: protein-binding microarray; molecule type: double-stranded DNA, one strand shown; matrix: in vitro; tested at: not given; reading: higher = stronger binding
# Target: Myc proto-oncogene protein, bHLH-zipper, MAX partner unstated (MYC, Homo sapiens, UniProt P01106, residues 368-449)
# Sequence of UniProt P01106 (368-449, looked up): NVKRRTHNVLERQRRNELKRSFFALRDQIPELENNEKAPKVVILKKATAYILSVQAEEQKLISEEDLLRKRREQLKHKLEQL
# Notes: k-mer, scored over probes, only values ≥0.25
Strand,E-score
GGCGTGGA,0.385
CATCACGC,0.289
CGGTGCAC,0.264
ACCCACCC,0.343
ACCACGCA,0.406
TGTTAACA,0.263
CACGCCCC,0.35
AGCGTGCA,0.369

# Set 2 — technique: competition with immobilised ligand; tested at: 1 µM
# SMILES: CCCCN(CCCC)C(=O)CN1C[C@H](c2cc(OC)c3c(c2)OCO3)[C@@H](C(=O)O)[C@@H]1CC(C)(C)CCC
target,observed,remaining binding [%]
"DCLK1 (Homo sapiens, UniProt O15075)",cell-free assay,80.2
"PNCK (Homo sapiens, UniProt Q6P2M8)",cell-free assay,86.5
"TGFBR2 (Homo sapiens, UniProt P37173)",cell-free assay,100
"PIK3CA (Homo sapiens, UniProt P42336, C420R)",cell-free assay,100
"EPHB4 (Homo sapiens, UniProt P54760)",cell-free assay,100
"CDK11A (Homo sapiens, UniProt Q9UQ88)",binding,100
"Tyrosine-protein kinase JAK2, JH1 (JAK2, Homo sapiens, UniProt O60674)",cell-free assay,100
"DYRK1A (Homo sapiens, UniProt Q13627)",cell-free assay,73.1
"EPHB6 (Homo sapiens, UniProt O15197)",cell-free assay,100
"GAK (Homo sapiens, UniProt O14976)",cell-free assay,100
"LRRK2 (Homo sapiens, UniProt Q5S007)",cell-free assay,38
"STK4 (Homo sapiens, UniProt Q13043)",cell-free assay,100
"NTRK1 (Homo sapiens, UniProt P04629)",cell-free assay,61.2
"FYN (Homo sapiens, UniProt P06241)",cell-free assay,100
"Ribosomal protein S6 kinase alpha-4, N-terminal kinase domain (RPS6KA4, Homo sapiens, UniProt O75676)",cell-free assay,100
"CDK9 (Homo sapiens, UniProt P50750)",cell-free assay,100
"DDR1 (Homo sapiens, UniProt Q08345)",cell-free assay,95.5

# Set 3 — Structure (SMILES): Clc1ccc(Nc2nnc(Cc3ccncc3)c3ccccc23)cc1; observed: enzyme activity; mode: inhibitor; tested at: 0.5 µM; reference: control
target,remaining activity
"PRKCA (Homo sapiens, UniProt P17252)",75.8%
"DAPK1 (Homo sapiens, UniProt P53355)",105%
"Cyclin-dependent kinase 4, with cyclin D1 (CDK4, Homo sapiens, UniProt P11802)",96.6%
"STK39 (Homo sapiens, UniProt Q9UEW8)",92.6%
"TGFBR2 (Homo sapiens, UniProt P37173)",100%
"CAMKK2 (Homo sapiens, UniProt Q96RR4)",100%
"cGMP-dependent protein kinase 1, isoform beta (PRKG1, Homo sapiens, UniProt Q13976)",94.1%
"MAP3K3 (Homo sapiens, UniProt Q99759)",118%
"PRKACA (Homo sapiens, UniProt P17612)",98.1%
"STK11 (Homo sapiens, UniProt Q15831)",97.3%
"Protein kinase C beta type, isoform beta-I (PRKCB, Homo sapiens, UniProt P05771)",83.5%
"CHEK2 (Homo sapiens, UniProt O96017)",98.5%
"CAMK2D (Homo sapiens, UniProt Q13557)",81.1%
"DAPK2 (Homo sapiens, UniProt Q9UIK4)",91.7%
"STK10 (Homo sapiens, UniProt O94804)",96.3%
"OXSR1 (Homo sapiens, UniProt O95747)",101%
"Cyclin-dependent kinase 5, with p25 (CDK5, Homo sapiens, UniProt Q00535)",91.3%
"GRK3 (Homo sapiens, UniProt P35626)",92.9%
"Tyrosine-protein kinase Lyn, isoform B (LYN, Homo sapiens, UniProt P07948)",110%

# Set 4 — technique: protein-binding microarray; molecule type: double-stranded DNA, one strand shown; matrix: in vitro; tested at: 2540 nM top; notes: 60-bp whole probe; together with: salmon DNA 0.4 mg/ml; reference: random background probes; reading: higher = stronger binding; constant ends, left off below: GCCTAGCAC … GTCTTGATTCGCTTGACGCTGCTG
# Target: Interferon regulatory factor 3, full length, phosphomimetic (IRF3, Homo sapiens, UniProt Q14653, residues 1-427, S386D/S396D/S398D/S402D/T404D/S405D)
# Sequence of UniProt Q14653 (whole entry, unmodified, looked up): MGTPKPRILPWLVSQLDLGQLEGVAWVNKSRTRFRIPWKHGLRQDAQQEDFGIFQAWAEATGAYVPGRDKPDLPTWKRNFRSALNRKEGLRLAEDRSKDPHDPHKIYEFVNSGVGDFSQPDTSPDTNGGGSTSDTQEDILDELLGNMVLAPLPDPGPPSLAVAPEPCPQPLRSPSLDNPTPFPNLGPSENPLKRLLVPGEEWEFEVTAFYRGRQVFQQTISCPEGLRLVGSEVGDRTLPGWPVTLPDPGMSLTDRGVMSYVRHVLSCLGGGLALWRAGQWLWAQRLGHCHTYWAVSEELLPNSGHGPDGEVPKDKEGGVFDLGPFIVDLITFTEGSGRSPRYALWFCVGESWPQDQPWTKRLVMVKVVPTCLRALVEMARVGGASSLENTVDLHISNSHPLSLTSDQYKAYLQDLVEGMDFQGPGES
Strand,fitted relative affinity [z-score]
TGTGCTTTCCTCGTGATGCTGTGCTAG,0.98
TTAGATTTCAGTATCGACTAGTGCTAG,2.06
GACGGACTGGGATTGGGGACGTGCTAG,-0.6
GACGGTTTCGGTCACGGGACGTGCTAG,5.29
AACGGACTGGACTATCGGGACGTGCTA,-0.322
TTCAGTTTTCCTATGTCATTGTGCTAG,2.79
TTAGAATTGAGTATCGATTAGTGCTAG,0.211
GACTGACTGCTACTGCTGACGTGCTAG,-0.673

# For quick reference, copied from above (set 3):
target,remaining activity
"Cyclin-dependent kinase 5, with p25 (CDK5, Homo sapiens, UniProt Q00535)",91.3%
"TGFBR2 (Homo sapiens, UniProt P37173)",100%
"CHEK2 (Homo sapiens, UniProt O96017)",98.5%
"PRKCA (Homo sapiens, UniProt P17252)",75.8%
